Measured values from different studies.
Numbered parts are unrelated; each lists some results of a single study. Positions count from the first letter of the parent shown.

Series 1
Target: RING finger protein unkempt homolog, zinc fingers 1-6, GST-SBP tag (UNK, Homo sapiens, UniProt Q9C0B0, residues 30-357)
Technique: RNA Bind-n-Seq
Molecule type: RNA
Sample: in vitro
Tested at: not given
Notes: RNA with constant flanks, human and mouse sites, ends assumed
Baseline: input RNA pool
Reading: higher = stronger binding
Constant ends, left off below: GGGAGUUCUACAGUCCGACGAUC … CAACAGAGGAUUGAGCAUCA
Target sequence (chain): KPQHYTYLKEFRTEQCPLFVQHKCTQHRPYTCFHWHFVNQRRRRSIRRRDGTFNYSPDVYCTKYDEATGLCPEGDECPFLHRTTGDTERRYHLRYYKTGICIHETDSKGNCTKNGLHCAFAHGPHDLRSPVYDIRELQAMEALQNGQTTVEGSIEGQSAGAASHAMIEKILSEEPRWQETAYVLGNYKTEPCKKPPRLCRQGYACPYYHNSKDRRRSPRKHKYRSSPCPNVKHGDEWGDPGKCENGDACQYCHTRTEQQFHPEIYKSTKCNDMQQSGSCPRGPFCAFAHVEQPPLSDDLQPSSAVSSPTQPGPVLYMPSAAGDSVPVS
Oligonucleotide | bound/input enrichment [ratio]
UUAGCAGGUGGAGCCAUCUUCUGUGUUUCUACAUGGACAUAUACAGCCACACAAAUUGGAAUAGAAUGGAACAUGUCCCCUGUUGGCAGAGUCACCCCAAAGGAAUGGAGAGAUCAGUAG | 0.491
CCUGAGUUCGAGCCAGUUUUUAGUCUUUUUGCCUUCACCAACAAAAUUACUUCUGUGCACAGUAGAAUUAUUUGGUCUUGUGAUUGGAGUCCUGACAGCAAGUAUUUCUUCACUGGGAGU | 0.814
UUAUCAAGGAAACAGAAAGAAGAAUUAUGGCAAAGGCUGAAGAAUUUAUUGACAGAUGUGUUGUUAGAAAGCCCAGUGGAUGGGUGGCAGGUAGUGGAAGCCCAGGGUGAAGACAAUAUG | 0.725
GCCUGUGAGGAUUACAAGAAGAUCAAGUCCCCUGCCAAGAUGGCUGAGAAGGCAAAGCAAAUUUAUGAAGAAUUCAUUCAAACGGAGGCUCCUAAAGAGGUGAAUAUUGACCACUUCACU | 0.168
GAAGACUUCUGCCGAGAAGGUCUAUCUGAUAUCUUACCCAUUCUGCAUGGUUUAUGCCUGUAGUUGAGCCCAUUGUUGUGAAAUCUGUCCUUGUCCAGUACCUAGAUCUGUGGAGGUCAA | 0.208
AGAAGACGGAGACCAUAACAGGACAUUUGAUAUUGCCUAACUUCAUAUAAGACAGAUGGAUGAUCUGUGAACAUAAGUGUUUAUUAAAAAUGGCAAUUAAAUAUAAAUUACUUUUGUGGG | 0.808
GUUCCUGAAGCCGGGUUUCAGGCAACUGGGAUGGCGAGUCCGCGAGUGUUCCCACUUUCCUGUGUGGUGCAGCAGUAUGCCUGGGGGAAGGUGGGCUCCAAAAGUGAAGUGGCAUGCCUG | 0.139
CACAAUUGCUCUUACAAUUACAAAGCCGAUGCUGCUGAGAAAAUCAGAAAAGAAAAUCCAGUAGUUGUUGGUGAAAAGAUCCAAAAGAUUUGAACUCCUGCUGGAAUACAAAAUUCUUGA | 0.0929
AACCUCAAUGAAGAUUUGGAGGGCAGAUCCUUUCUGGUGACUUUUUGGCCUUUUCUUUUUCUUUUCUUUUUUUUUUUUUCAAAUGUGCAAGUUAGAAGACAAGUGAAAGGAGUGGAAAGU | 0.166
CAUGAAGAAAGAACAAUUUUGCCUAUGUCAAGAGCUUUCCGUGGUAAACACCUCUCUUUUAUAGUUCGAUUUCCAAACCAGGGCAGGCAAGUAGAUGACUUGGAGGUUUGGUCUCAUACA | 0.322
ACAGUAUGUUCCCCUGUGCCCAUGUUGCGGGACCUGACACAGAACACUGCAGUCAGUAUUAAUUUUAAAGAUCCACAGUUUGCUGAAGAUUAUGUUUUUAAAGCUGCAAUGCUUCCAGGA | 0.151

Series 2
Target: PABPC1L2, full length, GST fusion (mouse, UniProt A0ABA7IW68)
Technique: RNAcompete
Molecule type: RNA
Sample: in vitro
Tested at: 20 nM
Notes: 7-mer, probes averaged, single round
Baseline: mean of 7-mers
Reading: higher = stronger binding
Residues (chain): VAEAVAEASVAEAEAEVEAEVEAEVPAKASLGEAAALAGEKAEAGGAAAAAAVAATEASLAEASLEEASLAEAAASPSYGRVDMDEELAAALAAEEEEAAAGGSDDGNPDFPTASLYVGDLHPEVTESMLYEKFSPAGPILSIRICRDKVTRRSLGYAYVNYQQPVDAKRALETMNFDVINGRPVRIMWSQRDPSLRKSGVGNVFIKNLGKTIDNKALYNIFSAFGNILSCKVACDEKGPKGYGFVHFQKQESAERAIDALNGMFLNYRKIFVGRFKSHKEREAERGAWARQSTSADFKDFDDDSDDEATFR
Oligonucleotide | 7-mer Z-score
AUAGGUG | -0.0319
CCCCGCG | -0.38
GUCCGAC | -0.211
CCGAUCG | -0.291
UUGUGUG | -0.329
CGGUGCU | -0.0355
UAUACUA | -0.197
CUCUCAC | -0.431
CGCUUAC | -0.364
UUCAAGG | -0.175
UAAACGC | 0.283
CGGCCCA | -0.184
CGCCAGA | -0.258
CGUCCGG | -0.17
GGGAGGC | 0.312
AAUUAAU | 0.137
GUCUAGA | -0.19
GUCUCUA | -0.327
UACCGCC | -0.335
AUAAGGA | 0.175
GAUGCCC | -0.291
UGGAUCU | -0.18
UGUAUGU | -0.315
CUUACCG | -0.257
AAACCUA | 0.448

Series 3
Target: Sal-like protein 4, full length isoform B (SALL4, Homo sapiens, UniProt Q9UJQ4-2, residues 1-616)
Technique: universal PBM
Molecule type: double-stranded DNA, one strand shown
Sample: in vitro
Tested at: not given
Notes: 8-mer, flanks averaged, mean of replicates
Reading: higher = stronger binding
Oligonucleotide | E-score
ATTTATAA | 0.379
CCTGTCGC | -0.244
ACACGCAT | 0.0548
ATTTCCAA | 0.205
ATGCAGAA | 0.181
GCCGCCGA | -0.284
TGCTGGAA | -0.00952
ATCCCGGG | -0.252
CATCGATC | -0.0139
GTGCGAAA | 0.0384
CTTAACCA | 0.0959
CGAGCAAC | -0.0985
ATAAGTCC | 0.17
AGCGCACA | -0.151
CCAGATCC | -0.371
TGCCTCCA | -0.115
GCCATCCC | -0.242
GGTACGAA | 0.061
GAGGTCGC | -0.288
CGCTCAAA | -0.163
ATCAGAGC | -0.16

Series 4
Target: ABI1, truncated, D143A, DHFR fusion (Arabidopsis thaliana)
Technique: DHFR PCA, deep sequencing
Sample: yeast
Notes: methotrexate growth selection, single substitutions
With: (+)-ABA 58 µM
Baseline: wild-type fitted maximum
Reading: higher = stronger binding
Parent: PYL1, truncated, DHFR fusion (Arabidopsis thaliana); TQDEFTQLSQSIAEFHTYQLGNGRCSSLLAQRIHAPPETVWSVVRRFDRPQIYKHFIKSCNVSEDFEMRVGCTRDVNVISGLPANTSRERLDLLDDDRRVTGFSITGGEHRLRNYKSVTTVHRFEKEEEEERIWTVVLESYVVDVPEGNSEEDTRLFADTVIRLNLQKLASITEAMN; partner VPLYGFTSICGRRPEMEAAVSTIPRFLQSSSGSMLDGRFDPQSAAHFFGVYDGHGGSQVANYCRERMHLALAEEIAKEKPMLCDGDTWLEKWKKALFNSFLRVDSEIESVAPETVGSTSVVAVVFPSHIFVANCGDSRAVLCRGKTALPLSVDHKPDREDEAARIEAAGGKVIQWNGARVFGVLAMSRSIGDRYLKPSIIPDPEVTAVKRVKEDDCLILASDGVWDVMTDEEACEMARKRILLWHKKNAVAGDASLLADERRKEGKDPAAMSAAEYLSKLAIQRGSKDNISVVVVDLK
Change | relative binding score
R49E | 79%
M68W | 66.1%
H110V | -0.857%
D97L | 78.9%
F5G | 77.7%
I79M | 73.1%
V118S | 41.1%
M68P | 75%
T101V | 82.1%
R132I | 87.6%
E14C | 61.1%
Q167L | 81.4%
E67A | 83.6%
H55T | 91%
L112C | 43.8%
R90I | 57.6%
V143K | -13.5%

Series 5
Target: Histone acetyltransferase KAT6A, winged helix 1, GST fusion (KAT6A, Homo sapiens, UniProt Q92794, residues 1-85)
Technique: protein binding microarray
Molecule type: double-stranded DNA, one strand shown
Sample: in vitro
Tested at: not given
Notes: 8-mer, flanks averaged, mean of 2 arrays, mostly near background
Baseline: not given
Reading: higher = stronger binding
Target sequence (chain): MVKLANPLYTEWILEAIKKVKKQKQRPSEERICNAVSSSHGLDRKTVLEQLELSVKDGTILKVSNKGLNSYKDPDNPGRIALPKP
Oligonucleotide | E-score
AGTCATAA | -0.195
AATTGCGG | 0.24
ATGACTCC | 0.00383
CCTGCTAG | -0.081
CTACACTA | -0.205
AACACCTT | -0.0815
ACAGTTTG | -0.0489
CGTCGCAA | 0.31
ACCGATAT | 0.0241
AACGCAGC | -0.0551
CTAGGCGC | 0.304
ACTAGGCT | -0.108
AACTCCAG | -0.0662
CGTTGCAA | -0.154
CTGTCCCC | 0.0482
GATTATGC | -0.0945
ATCCCTGC | -0.0738
ACAACTCT | -0.269
ACGATGTC | -0.0606
AGTTTCTG | -0.104

Series 6
Target: CCND2, cyclin fold, Cln2 fusion (human)
Technique: yeast growth competition, sequencing
Sample: yeast
Notes: weak parent motif
Baseline: not given
Reading: higher = stronger binding
Parent: CDC25A docking peptide (human); PPHRRRLLFACSP; partner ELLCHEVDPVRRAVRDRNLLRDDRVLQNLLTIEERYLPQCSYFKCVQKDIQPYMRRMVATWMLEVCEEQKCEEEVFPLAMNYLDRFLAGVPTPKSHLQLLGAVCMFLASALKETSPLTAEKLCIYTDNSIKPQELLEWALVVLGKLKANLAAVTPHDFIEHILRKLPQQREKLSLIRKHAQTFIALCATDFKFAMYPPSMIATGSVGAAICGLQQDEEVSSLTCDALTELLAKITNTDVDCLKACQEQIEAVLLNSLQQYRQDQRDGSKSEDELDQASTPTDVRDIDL
Change | normalised enrichment score
PPHRKRLLLACSP [R5K F9L] | 0.0146
PPHVRRLLFACSP [R4V] | 0.354
PPHLRRLLFACSP [R4L] | 0.345
PPHRRRLLFAHSP [C11H] | 0.323
PPHRRGLLFACSP [R6G] | -0.24
PPHRRCLLFACSP [R6C] | 0.0488
IPHRRRLLFACSP [P1I] | 0.283
PPHRRRLLFSCSP [A10S] | 0.076
PPHRRRLLFACSA [P13A] | 0.135
PPHRRRLLFACSL [P13L] | -0.177
PPHTRRLLFACSP [R4T] | 0.294
PPHRRRTLFACSP [L7T] | 0.568
PPHRMRLLFACSP [R5M] | 0.137
PPHRRRLLFARSP [C11R] | -0.312
PPHRRRHLFACSP [L7H] | 0.0602
PPHRRRLLFAVSP [C11V] | 0.0882
PPHRRNLLFACSP [R6N] | 0.409
PSHRRRLLFACSP [P2S] | -0.0615
PPHRRYLLFACSP [R6Y] | -0.216
PPHRRRLLFAISP [C11I] | 0.245
PPSRRRLLFACSP [H3S] | 0.197
PPHRRRLLFACSK [P13K] | 0.00304
